Published values of several laboratories.
Each numbered part is a random draw from the data of one study; scales do not carry over between parts.

Series 1 — observed: enzyme activity; action: inhibitor; concentration: 20 µM
Target: Replicase polyprotein 1ab, polymerase (rep, Severe acute respiratory syndrome coronavirus 2, UniProt P0DTD1)
| SMILES | inhibition |
| --- | --- |
| COC(=O)N[C@H](C(=O)N1CC2(CC2)C[C@H]1c1nc(-c2ccc3c(c2)C(F)(F)c2cc(-c4ccc5[nH]c([C@@H]6[C@H]7CC[C@H](C7)N6C(=O)[C@@H](NC(=O)OC)C(C)C)nc5c4)ccc2-3)c[nH]1)C(C)C | -3.86% |
| CN1c2cc3c(cc2N=C(c2ccc(C(=O)O)cc2)c2ccccc21)C(C)(C)CCC3(C)C | -2.13% |
| C[C@H](CCC(=O)O)[C@H]1CC[C@H]2[C@@H]3CC[C@@H]4C[C@H](O)CC[C@]4(C)[C@H]3C[C@H](O)[C@]12C | -2.53% |
| C[C@H](/C=C/[C@H](C)C(C)(C)O)[C@H]1CC[C@H]2/C(=C/C=C3C[C@@H](O)C[C@H](O)C3)CCC[C@]12C | 1.97% |
| Cc1ccc(NC(=O)C2(c3ccc4c(c3)OC(F)(F)O4)CC2)nc1-c1cccc(C(=O)O)c1 | 1.87% |
| C[C@@H]1CC2C3CCC4=CC(=O)C=C[C@]4(C)[C@@]3(F)[C@@H](O)C[C@]2(C)[C@H]1C(=O)CO (stereo partly shown) | -3.24% |
| CCCCCCCCCC(=O)O[C@H]1CC[C@H]2[C@@H]3CCC4=CC(=O)CC[C@@H]4[C@H]3CC[C@]12C | 2.84% |
| CCC[C@H](N[C@H]1CCc2cc(F)cc(F)c2C1)C(=O)Nc1cn(C(C)(C)CNCC(C)(C)C)cn1 | -1.72% |
| CCN(c1cc(C#CCN2CCOCC2)cc(C(=O)NCc2c(C)cc(C)[nH]c2=O)c1C)[C@H]1CC[C@H](N(C)CCOC)CC1 | -2.98% |
| COc1cc(/C=C/C(=O)N2CCN(CC(=O)N3CCCC3)CC2)cc(OC)c1OC | -3.22% |
| CN(Cc1cnc2nc(N)nc(N)c2n1)c1ccc(C(=O)N[C@@H](CCC(=O)O)C(=O)O)cc1 | 30% |
| CCOC(=O)[C@H](CCc1ccccc1)N[C@@H](C)C(=O)N1Cc2cc(OC)c(OC)cc2C[C@H]1C(=O)O | 0.27% |
| NC[C@H]1CC[C@H](C(=O)O)CC1 | 28.3% |
| O=C(O)CC1CC(c2ccccc2)=NO1 (stereo not shown) | -10.2% |
| CN1CCCC(n2nc(Cc3ccc(Cl)cc3)c3ccccc3c2=O)CC1 (stereo not shown) | -0.39% |
| COC1=C2C[C@@H](C)C[C@H](OC)[C@H](O)[C@@H](C)/C=C(\C)[C@H](OC(N)=O)[C@@H](OC)/C=C\C=C(/C)C(=O)NC(=CC1=O)C2=O | -6.28% |
| COc1ccc(CNC(=O)Nc2ncc([N+](=O)[O-])s2)cc1 | 4.9% |
| OCCn1cc(-c2ccc3c(c2)CC/C3=N\O)c(-c2ccncc2)n1 | -1.81% |
| C/C(O)=C(\C#N)C(=O)Nc1ccc(C(F)(F)F)cc1 | 0.74% |
| CC1(C)OC(=O)C(OCC2CC2)=C1c1ccc(S(C)(=O)=O)cc1 | -7.28% |

Series 2 — technique: protein-binding microarray; form: double-stranded DNA, one strand shown; sample: in vitro; concentration: 2200 nM top; notes: 60-bp whole probe; with: salmon DNA 0.4 mg/ml; reference: random background probes; direction: higher = stronger binding; constant ends, left off below: GCCTAGCAC … GTCTTGATTCGCTTGACGCTGCTG
Target: Interferon regulatory factor 7, full length, phosphomimetic (IRF7, Homo sapiens, UniProt Q92985, residues 1-503, S471D/S472D/S475D/S476D/S477D/S483D/S484D/S487D)
Construct (chain): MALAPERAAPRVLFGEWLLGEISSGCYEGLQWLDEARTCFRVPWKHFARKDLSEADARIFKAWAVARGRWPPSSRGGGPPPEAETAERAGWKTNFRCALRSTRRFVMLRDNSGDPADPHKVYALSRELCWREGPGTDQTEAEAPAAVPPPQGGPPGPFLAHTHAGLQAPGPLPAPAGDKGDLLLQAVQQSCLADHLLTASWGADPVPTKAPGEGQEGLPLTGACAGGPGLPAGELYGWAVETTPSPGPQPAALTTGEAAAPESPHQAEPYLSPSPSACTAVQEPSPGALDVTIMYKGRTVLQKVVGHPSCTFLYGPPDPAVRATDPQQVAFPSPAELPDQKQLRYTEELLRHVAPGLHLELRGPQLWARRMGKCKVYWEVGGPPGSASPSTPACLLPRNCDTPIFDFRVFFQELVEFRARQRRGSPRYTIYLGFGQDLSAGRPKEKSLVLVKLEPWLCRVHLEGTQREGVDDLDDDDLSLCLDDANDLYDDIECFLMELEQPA
| Oligonucleotide | fitted relative affinity [z-score] |
| --- | --- |
| TCAAATGTCCTTTCTCCAACTGTGCTA | 1.26 |
| GCCGAACTGAGTTTCGAGACGTGCTAG | 2.28 |
| TCACATTTTTCCCTCTGACTGTGCTAG | 2.66 |
| TTAAATATCAGACTGGATTAGTGCTAG | -0.61 |
| GACGATAACGGGACTGGAGACGTGCTA | -0.563 |
| GACGGTTTCGACTATCGGGACGTGCTA | 3.49 |
| TCATCTCTCTTAAATAGGACTGTGCTA | 0.632 |
| GACGGTTTCGGTCTCGGGGCGTGCTAG | 6.6 |

Series 3 — cell line: HEK-293T; observed: pseudovirus infection; technique: FDA-approved drug library screen; organism: VSV pseudotyped with SARS-CoV-2 spike; concentration: 10 µM; time: 16 h; reference: vehicle-treated
| SMILES | GFP-positive cells [%] |
| --- | --- |
| Cc1nnc(SCC2=C(C(=O)O)N3C(=O)[C@@H](NC(=O)Cn4cnnn4)[C@H]3SC2)s1 | 70.1 |
| CC[N+](CC)(CC)CCOc1cccc(OCC[N+](CC)(CC)CC)c1OCC[N+](CC)(CC)CC | 68.3 |
| O=C1CCc2cc(OCCCCc3nnnn3C3CCCCC3)ccc2N1 | 91 |
| CCCCC(=O)O[C@H]1CC[C@H]2[C@@H]3CCc4cc(O)ccc4[C@H]3CC[C@]12C | 87.2 |

Series 4 — technique: protein binding microarray; form: double-stranded DNA, one strand shown; sample: in vitro; concentration: not given; reference: not given; direction: higher = stronger binding
Target: Histone acetyltransferase KAT6A, both winged helices, GST fusion (KAT6A, Homo sapiens, UniProt Q92794, residues 1-181)
Notes: 8-mer, flanks averaged, mean of 2 arrays, mostly near background
Target sequence (chain): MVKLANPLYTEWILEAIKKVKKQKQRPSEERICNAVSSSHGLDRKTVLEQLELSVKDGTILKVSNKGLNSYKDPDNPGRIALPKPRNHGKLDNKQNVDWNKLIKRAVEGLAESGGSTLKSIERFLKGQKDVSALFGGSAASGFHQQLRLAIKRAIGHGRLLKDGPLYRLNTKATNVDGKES
| Oligonucleotide | E-score |
| --- | --- |
| AGTAGGGA | -0.0925 |
| CGATTGTA | 0.0646 |
| GAAGGGCA | -0.162 |
| AGTATGAA | -0.0441 |
| GGCACAAC | 0.0763 |
| AATTATAC | -0.0331 |
| GAGTCGTA | -0.134 |
| AGAAGCCC | -0.0182 |

A few entries again (series 4):
| Oligonucleotide | E-score |
| --- | --- |
| AGTATGAA | -0.0441 |
| GGCACAAC | 0.0763 |
| AATTATAC | -0.0331 |
| GAGTCGTA | -0.134 |
